# Measurements pooled from the literature.
# Lines come from different studies, so protocols differ.
# PFF0160c: Dihydroorotate dehydrogenase (quinone), mitochondrial (PFF0160c, Plasmodium falciparum, UniProt Q08210)
# Chain of UniProt Q08210 (whole entry, looked up): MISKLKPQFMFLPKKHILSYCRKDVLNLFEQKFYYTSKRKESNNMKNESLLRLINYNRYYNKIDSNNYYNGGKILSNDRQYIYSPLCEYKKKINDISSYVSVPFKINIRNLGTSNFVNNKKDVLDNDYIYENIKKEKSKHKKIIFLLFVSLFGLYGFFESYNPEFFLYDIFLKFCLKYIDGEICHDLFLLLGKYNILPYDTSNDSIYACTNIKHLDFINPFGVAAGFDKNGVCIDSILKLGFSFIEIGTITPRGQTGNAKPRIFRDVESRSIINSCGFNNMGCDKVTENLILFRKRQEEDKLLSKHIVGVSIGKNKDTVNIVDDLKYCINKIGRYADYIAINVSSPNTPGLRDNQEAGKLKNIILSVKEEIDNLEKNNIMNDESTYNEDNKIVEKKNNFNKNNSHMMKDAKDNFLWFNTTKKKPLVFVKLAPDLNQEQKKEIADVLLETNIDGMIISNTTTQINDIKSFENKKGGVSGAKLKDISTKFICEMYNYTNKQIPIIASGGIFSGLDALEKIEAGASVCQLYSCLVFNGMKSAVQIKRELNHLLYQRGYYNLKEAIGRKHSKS
# Chain of UniProt Q15418 (whole entry, looked up): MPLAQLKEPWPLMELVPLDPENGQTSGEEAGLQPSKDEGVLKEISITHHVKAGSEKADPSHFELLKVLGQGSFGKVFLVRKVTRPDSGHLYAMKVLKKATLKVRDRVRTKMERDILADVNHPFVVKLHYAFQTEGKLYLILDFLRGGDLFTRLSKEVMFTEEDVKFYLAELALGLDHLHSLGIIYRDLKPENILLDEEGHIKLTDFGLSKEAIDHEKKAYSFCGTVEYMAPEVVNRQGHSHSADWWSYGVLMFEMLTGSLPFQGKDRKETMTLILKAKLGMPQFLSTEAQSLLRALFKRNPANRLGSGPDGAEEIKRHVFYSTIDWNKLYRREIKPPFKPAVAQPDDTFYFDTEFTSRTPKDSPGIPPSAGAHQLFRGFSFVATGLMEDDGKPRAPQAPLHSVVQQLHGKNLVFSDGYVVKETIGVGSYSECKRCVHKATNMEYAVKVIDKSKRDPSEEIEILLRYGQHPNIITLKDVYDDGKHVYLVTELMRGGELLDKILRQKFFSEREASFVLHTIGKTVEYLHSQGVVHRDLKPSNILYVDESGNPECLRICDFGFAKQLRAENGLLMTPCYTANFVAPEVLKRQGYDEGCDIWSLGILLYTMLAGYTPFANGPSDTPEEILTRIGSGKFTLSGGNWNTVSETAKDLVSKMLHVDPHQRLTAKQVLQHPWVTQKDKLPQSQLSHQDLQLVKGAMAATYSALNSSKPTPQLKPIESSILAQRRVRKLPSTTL
SMILES,target or system,test,system,setting,endpoint,result
Cc1cccc(CNC(=O)c2sc3nc(-c4ccc5c(c4)OCO5)cc(C(F)(F)F)c3c2N)c1C,Mycobacterium tuberculosis,microbial growth,H37RV,,IC50,> 100 µM
CCCCC(=O)N1C(=O)/C(=C(/C)O)C(=O)C1CC(C)C (centres unmarked),Burkholderia cepacia,microbial growth,ATCC25416,,MIC,> 200 µg/mL
O=c1c2cc(Cl)ccc2[nH]c(=S)n1C(CCc1ccccc1)c1cccnc1 (centres unmarked),Mycobacterium tuberculosis,microbial growth,H37RV,,MIC90,> 100 µM
O=C(N[C@H](CO)[C@H](O)c1ccc([N+](=O)[O-])cc1)C(Cl)Cl,Burkholderia cenocepacia,microbial growth,J2315,,MIC,16 µg/mL
O=c1cc(OCCCOc2ccnc(SCc3ccc(F)cc3)n2)c2cc(F)ccc2o1,Human coronavirus 229E,cytopathic effect,A549,3.13 µM,inhibition,15.3%
CC(=O)C1=C(O)C(CC(C)C)NC1=O (centres unmarked),Burkholderia cepacia,microbial growth,ATCC25416,,MIC,> 200 µg/mL
COc1c(N2CC3CCCNC3C2)c(F)cc2c(=O)c(C(=O)OCc3cnc([N+](=O)[O-])s3)cn(C3CC3)c12 (centres unmarked),Mycolicibacterium fortuitum,microbial growth,ATCC6841,,MIC,0.12 µM
COc1ccc(-c2cc(C(F)(F)F)c3c(N)c(C(=O)Nc4c(C)cccc4C)sc3n2)cc1,Mycobacterium tuberculosis,microbial growth,H37RV,,IC50,> 100 µM
OC(Cn1cncn1)(Cn1cncn1)c1ccc(F)cc1F,Candida tropicalis,"microbial growth, broth dilution",ATCC13803,,MIC,2 µg/mL
O=C(O)c1cn(C2CC2)c2cc(N3CCNCC3)c(F)cc2c1=O,Burkholderia cenocepacia,microbial growth,J2315,,MIC,4 µg/mL
COc1ccc(-c2cc(C(F)(F)F)c3c(N)c(C(=O)Nc4cccc(C)c4OC)sc3n2)cc1,Mycobacterium tuberculosis,microbial growth,H37RV,,IC50,> 100 µM
Cc1cc2c(=O)n(Cc3cccnc3)c(=S)[nH]c2cn1,Mycobacterium tuberculosis,microbial growth,H37RV,,MIC90,56.3 µM
CCCCCCC/C=C/C(=O)N1C(=O)/C(=C(\O)c2ccc(F)cc2)C(=O)C1CC(C)C (centres unmarked),Burkholderia cepacia,microbial growth,ATCC25416,,MIC,> 200 µg/mL
COc1ccc(-c2cc(C(F)(F)F)c3c(N)c(C(=O)Nc4cc(C)cc(C)c4)sc3n2)cc1,Mycobacterium tuberculosis,microbial growth,H37RV,,IC50,> 100 µM
Cc1ncc([N+](=O)[O-])n1CCO,Burkholderia cenocepacia,microbial growth,J2315,,MIC,> 256 µg/mL
CCOC(=O)C1=C[C@@H](OC(CC)CC)[C@H](NC(C)=O)[C@@H](N)C1,Human coronavirus 229E,cytopathic effect,A549,3.13 µM,inhibition,21.2%
COCc1cc2[nH]c(=S)n(Cc3cccnc3)c(=O)c2cc1Cl,Mycobacterium tuberculosis,microbial growth,H37RV,,MIC90,> 100 µM
Nc1ncnc2c([C@@H]3N[C@H](CO)[C@@H](O)[C@H]3O)c[nH]c12,unidentified influenza virus,"viral replication, inhibitor",MDCK,0.9 µM,inhibition,0%
Cc1cccc(CSc2nccc(OCCOc3cc(=O)oc4ccccc34)n2)c1,Human coronavirus 229E,cytopathic effect,A549,6.25 µM,inhibition,31.7%
Cc1cccc(NC(=O)c2sc3nc(-c4cccs4)cc(C(F)(F)F)c3c2N)c1,Mycobacterium tuberculosis,microbial growth,H37RV,,IC50,> 100 µM
O=c1c2cc(Cl)ccc2[nH]c(=S)n1Cc1cccnc1,Mycobacterium tuberculosis,microbial growth,H37RV,,MIC90,> 100 µM
CCCCCCC/C=C/C(=O)N1C(=O)/C(=C(\O)c2ccccc2)C(=O)C1CC(C)C (centres unmarked),Burkholderia cepacia,microbial growth,ATCC25416,,MIC,> 200 µg/mL
COc1ccc(-c2cc(C(F)(F)F)c3c(N)c(C(=O)NCc4cccc(C)c4C)sc3n2)cc1,Mycobacterium tuberculosis,microbial growth,H37RV,,IC50,0.77 µM
CCCCCCC/C=C/C(=O)N1C(=O)/C(=C(\O)c2ccncc2)C(=O)C1CC(C)C (centres unmarked),Burkholderia cepacia,microbial growth,ATCC25416,,MIC,200 µg/mL
COc1ccc(-c2cc(C(F)(F)F)c3c(N)c(C(=O)Nc4ccccc4)sc3n2)cc1,Mycobacterium tuberculosis,microbial growth,H37RV,,IC50,> 100 µM
[2H]c1c([2H])c([C@]2([2H])CCCN2C(=O)C(C)(C)Oc2ccc3cn[nH]c3c2)c([2H])c([2H])c1C([2H])([2H])[2H],"Ribosomal protein S6 kinase alpha-1, C-terminal kinase domain (RPS6KA1, Homo sapiens, UniProt Q15418)","binding, competition with immobilised ligand",,1 µM,remaining binding,71%
CSc1nc2nc(C)c(Cc3cccc(C(F)(F)F)c3)c(C)n2n1,PFF0160c,"enzyme activity, inhibitor, absorbance",,,IC50,0.445 µM
CC(C)C(=O)OCc1cc2[nH]c(=S)n(Cc3cncnc3)c(=O)c2cc1Cl,Mycobacterium tuberculosis,microbial growth,H37RV,,MIC90,1.36 µM
COc1c(N2C[C@@H]3CCCN[C@@H]3C2)c(F)cc2c(=O)c(C(=O)O)cn(C3CC3)c12,Pseudomonas aeruginosa,microbial growth,ATCC27853,,MIC,4 µM
Cc1cccc(NC(=O)c2sc3nc(-c4ccccc4)cc(C(F)(F)F)c3c2N)c1C,Mycobacterium tuberculosis,microbial growth,H37RV,,IC50,> 100 µM
CC(=O)NCCC(c1cccnc1)n1c(=S)[nH]c2ccc(Cl)cc2c1=O (centres unmarked),Mycobacterium tuberculosis,microbial growth,H37RV,,MIC90,> 100 µM
CCCN(Cc1nnc(-c2cccs2)o1)C(=O)C1COc2ccccc2O1 (centres unmarked),PFF0160c,"enzyme activity, inhibitor, absorbance",,,IC50,1.15 µM
